Results of several laboratories.
Parts stem from different laboratories: compare values within a part only.
UniProt Q2M2I8, sequence (whole entry, looked up): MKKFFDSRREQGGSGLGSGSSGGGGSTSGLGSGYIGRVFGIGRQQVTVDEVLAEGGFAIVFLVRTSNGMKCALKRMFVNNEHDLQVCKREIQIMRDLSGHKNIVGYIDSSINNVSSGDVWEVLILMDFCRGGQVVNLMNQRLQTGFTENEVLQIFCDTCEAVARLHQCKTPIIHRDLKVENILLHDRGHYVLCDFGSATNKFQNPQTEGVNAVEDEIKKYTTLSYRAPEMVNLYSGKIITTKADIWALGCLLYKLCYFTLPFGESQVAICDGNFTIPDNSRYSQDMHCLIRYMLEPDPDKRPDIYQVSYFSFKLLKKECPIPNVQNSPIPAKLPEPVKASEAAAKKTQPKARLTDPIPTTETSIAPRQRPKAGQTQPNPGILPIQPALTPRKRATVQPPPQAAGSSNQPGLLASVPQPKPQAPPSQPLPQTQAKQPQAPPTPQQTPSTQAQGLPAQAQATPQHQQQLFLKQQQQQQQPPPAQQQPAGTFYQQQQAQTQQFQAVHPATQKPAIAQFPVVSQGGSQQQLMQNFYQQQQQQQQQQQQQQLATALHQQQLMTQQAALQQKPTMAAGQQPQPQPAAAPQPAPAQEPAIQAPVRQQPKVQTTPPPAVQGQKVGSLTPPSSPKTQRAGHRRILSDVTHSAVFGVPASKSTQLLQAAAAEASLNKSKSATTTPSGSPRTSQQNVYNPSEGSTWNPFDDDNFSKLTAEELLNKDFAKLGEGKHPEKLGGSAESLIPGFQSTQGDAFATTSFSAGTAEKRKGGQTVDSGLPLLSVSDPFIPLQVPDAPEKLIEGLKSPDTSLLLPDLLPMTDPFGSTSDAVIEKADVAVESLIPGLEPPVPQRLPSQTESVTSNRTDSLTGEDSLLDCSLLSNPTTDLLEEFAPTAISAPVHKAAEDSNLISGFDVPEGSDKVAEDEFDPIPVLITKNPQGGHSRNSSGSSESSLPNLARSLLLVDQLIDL

Set 1
Target: Cyclin-dependent kinase 5, with p35 (CDK5, Homo sapiens, UniProt Q00535)
UniProt Q00535, sequence (whole entry, looked up): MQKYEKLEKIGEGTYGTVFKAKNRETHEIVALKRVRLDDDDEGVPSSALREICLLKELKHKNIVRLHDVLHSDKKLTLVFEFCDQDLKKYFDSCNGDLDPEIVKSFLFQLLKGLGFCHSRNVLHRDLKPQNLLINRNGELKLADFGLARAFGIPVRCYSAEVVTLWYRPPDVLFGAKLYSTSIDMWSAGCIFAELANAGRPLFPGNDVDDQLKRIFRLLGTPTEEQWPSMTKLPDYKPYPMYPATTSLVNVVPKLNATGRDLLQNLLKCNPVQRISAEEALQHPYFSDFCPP
Read-out: enzyme activity
Action: inhibitor
Tested at: 0.5 µM
Reference: control
| SMILES | remaining activity [%] |
| --- | --- |
| CC(C)n1cnc2c(Nc3cccc(Cl)c3)nc(NCCO)nc21 | 22.7 |
| O=C(c1ccccc1)c1ccc(N2CCOCC2)cc1O | 97 |
| CNc1cc2c(Nc3cccc(Br)c3)ncnc2cn1 | 100 |
| O=Nc1c(-c2c(O)[nH]c3ccccc23)[nH]c2ccccc12 | 23.8 |
| N#C/C(=C(/N)SC1C=CC=CC1)c1cccc(C(O)c2ccncc2)c1 (stereo not shown) | 91 |

Set 2
Target: UBC/CDC34 (Homo sapiens, UniProt P0CG48+P49427)
UniProt P49427, sequence (whole entry, looked up): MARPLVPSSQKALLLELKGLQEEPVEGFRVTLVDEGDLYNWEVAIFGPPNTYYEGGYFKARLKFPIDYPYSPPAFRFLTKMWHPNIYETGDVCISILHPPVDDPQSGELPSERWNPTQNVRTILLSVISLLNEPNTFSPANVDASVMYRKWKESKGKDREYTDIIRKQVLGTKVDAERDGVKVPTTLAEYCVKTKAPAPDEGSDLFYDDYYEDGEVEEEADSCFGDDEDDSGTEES
Method: TR-FRET
| Structure (SMILES) | EC50 [µM] |
| --- | --- |
| COCC(=O)N1CCC(Cc2ccc(-c3cc(Cl)cc(Cl)c3)cc2)(C(=O)NC2COC2)CC1 | > 100 |
| COCC(=O)N1CCC(Cc2ccc(-c3cc(Cl)cc(Cl)c3)cc2)(C(=O)O)CC1 | > 100 |
| COCC(=O)N1CCC(Cc2ccc(-c3cc(Cl)cc(Cl)c3)cc2)(NC(C)=O)CC1 | > 100 |
| CC(C)(C)OC(=O)N1CCC(Cc2ccc(-c3cc(Cl)cc(Cl)c3)cc2)(C(=O)O)CC1 | > 100 |
| COCC(=O)N1CCC(Cc2ccc(-c3cc(Cl)cc(Cl)c3)cc2)(C(=O)NCCO)CC1 | > 100 |
| CCC(=O)NC1(Cc2ccc(-c3cc(Cl)cc(Cl)c3)cc2)CCN(C(=O)COC)CC1 | > 100 |

Mixed results
| Compound | tested on | test | system | conditions | scale | endpoint | value |
| --- | --- | --- | --- | --- | --- | --- | --- |
| COc1ccc2c(c1)O[C@@H](c1ccc(OC)c(OC)c1)C[C@H]2NC(=O)C1(c2ccc3c(c2)OC(F)(F)O3)CC1 (single isomer, unassigned) | AP2-associated protein kinase 1 (AAK1, Homo sapiens, UniProt Q2M2I8) | KINOMEscan |  | 1 µM | reference: control | remaining binding | 100% |
| CC(C)n1cnc(-c2ccc(F)cc2)c1-c1ncc(C(=O)Nc2ccc(N3CCN(C)CC3)cc2)[nH]1 |  | phase 2a trial | idiopathic pulmonary fibrosis patients | dose not given, grade 1, arms pooled |  | patients with CRP increased | 2% |

Excerpt of the above (set 2):
| Structure (SMILES) | EC50 [µM] |
| --- | --- |
| CC(C)(C)OC(=O)N1CCC(Cc2ccc(-c3cc(Cl)cc(Cl)c3)cc2)(C(=O)O)CC1 | > 100 |
| COCC(=O)N1CCC(Cc2ccc(-c3cc(Cl)cc(Cl)c3)cc2)(C(=O)NCCO)CC1 | > 100 |
